Measured values gathered from unrelated publications.
Every numbered part comes from another study and shows a few of its results, in no order. Positions count from the first letter of the parent shown.

Sample 1 — target: CCNB3, cyclin fold, Cln2 fusion (human); method: yeast growth competition, sequencing; medium: yeast; setting: weak parent motif; reference: not given; direction: higher = stronger binding
Starting sequence: ORC1 docking peptide (human); PRARKRLELGNLG; partner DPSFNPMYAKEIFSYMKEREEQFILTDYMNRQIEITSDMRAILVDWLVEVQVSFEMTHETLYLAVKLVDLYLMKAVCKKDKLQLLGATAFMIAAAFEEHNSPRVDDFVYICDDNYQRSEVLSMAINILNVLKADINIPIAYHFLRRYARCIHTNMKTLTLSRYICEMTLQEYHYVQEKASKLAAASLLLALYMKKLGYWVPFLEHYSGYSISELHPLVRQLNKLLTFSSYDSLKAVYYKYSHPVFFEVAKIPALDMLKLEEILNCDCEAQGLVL
`PRARGRLELGNLG [K5G]` — result for “normalised enrichment score”: 0.241.
`PRLRKRLELGNLG [A3L]` — result for “normalised enrichment score”: -0.211.
`PRARKRLELCNLG [G10C]` — result for “normalised enrichment score”: 0.118.
Under “normalised enrichment score”, `PRARKHLELGNLG [R6H]` is recorded as -0.0844.
Under “normalised enrichment score”, `PRARKGLELGNLG [R6G]` is recorded as 0.727.
Under “normalised enrichment score”, `PRARKRLELGNSG [L12S]` is recorded as 0.171.
Under “normalised enrichment score”, `PRARKRLELGMLG [N11M]` is recorded as 1.07.
For `PRARKRLEAGNLG [L9A]`, “normalised enrichment score” read 0.338.
`PRARKRLELGNWG [L12W]` — result for “normalised enrichment score”: 0.401.
For `PRARKRLELGGLG [N11G]`, “normalised enrichment score” read 0.409.
`PYARKRLELGNLG [R2Y]` — result for “normalised enrichment score”: -0.236.
For `PRARKRLELGELG [N11E]`, “normalised enrichment score” read -0.182.
`FRARKRLELGNLG [P1F]` — result for “normalised enrichment score”: 0.103.
For `PRARKRLCLGNLG [E8C]`, “normalised enrichment score” read -0.0778.
`PRARKSLELGNLG [R6S]` — result for “normalised enrichment score”: -0.112.
`PRARKRLELGNMG [L12M]`: “normalised enrichment score” 0.554.
`PRARKPLELGNLG [R6P]`: “normalised enrichment score” 0.0601.
`PRARMRLELGNLG [K5M]`: “normalised enrichment score” -0.0146.

Sample 2 — method: RNA Bind-n-Seq; molecule type: RNA; medium: in vitro; tested at: 100 nM; reference: input RNA pool; direction: higher = stronger binding
Target: RING finger protein unkempt homolog, zinc fingers 1-6, SBP tag (UNK, Homo sapiens, UniProt Q9C0B0, residues 30-357)
UniProt Q9C0B0, sequence (30-357, looked up): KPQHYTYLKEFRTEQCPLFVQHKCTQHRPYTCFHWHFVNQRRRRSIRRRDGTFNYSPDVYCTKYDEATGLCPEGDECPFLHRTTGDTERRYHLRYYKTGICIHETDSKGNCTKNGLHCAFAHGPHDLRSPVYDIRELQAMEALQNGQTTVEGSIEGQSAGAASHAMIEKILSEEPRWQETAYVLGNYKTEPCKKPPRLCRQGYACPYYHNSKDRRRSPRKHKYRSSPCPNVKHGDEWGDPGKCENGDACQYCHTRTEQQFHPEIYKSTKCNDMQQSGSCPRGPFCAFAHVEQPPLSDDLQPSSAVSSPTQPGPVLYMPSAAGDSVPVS
Setting: RNA with constant flanks, vertebrate orthologous sites, ends assumed
Shared flanks, not repeated: GGGAGUUCUACAGUCCGACGAUC … CAACAGAGGAUUGAGCAUCA
`GUGUUGGUGCGGAGUGCUCUGUACCAGUGCUCAUCGUCCCUUCUUCAUACCAACUGUCCUAGUUAUAGGAAUAUUUUUUAAAGUUUUACAUUGCUGUAUAUUCAAAGAUUUGUUUUAUUA` has a bound/input enrichment of 0.452 ratio.
`GAAUUGAACAAAAGCGUUUCCACUGGGUUUUGCCUGUAAGAAAAAAAGUACCCGAGCACAUAGAGCUUUUUAAUAGUGCUAACCAAUGCCUUUUUAGAUGUAUUUUUGAUGUAUAUAUCU` gave a bound/input enrichment of 1.06 ratio.
`AAUUGACCAAAAACGUUUCCACUGGGUUUUGCCUGUAAGAAAAAAACGUACCUGAGCACAUAGAGCUUUUUAAUAGCACUAACCAAUGCCUUUUUAGAUGUAUUUUUGAUGUAUAUAUCU` gave a bound/input enrichment of 0.809 ratio.
With `UAAGAAUUGGAAGAAUUUUAUAGGAGGUGGUAGUCAAAAAGUAGCAGCAGUUUGGAAGAGUGGUUACAAAUAUCAAGAGCCAGGUGGCUAAAAGGUAGAGCUAUAGGUCAUUGAAGCUCA` the bound/input enrichment was 0.675 ratio.
`AACUGUUGUGUGAAAUGUCUAUCCAGAGAAGUGUCACCUUAUAAAUAUUAUCAAAUAAUUUAGCUAGAUUCUUCUUAAGUAUUAAAGUAUUUGUCAAGCAUUUAAAGUGAAUUUGAAAUG` has a bound/input enrichment of 0.355 ratio.
With `CAUUGUACCCUGCUGUAUAAUAAAAAAUCUUAGACAUUUAUCAACUGUUGAUACAAAUGUUAGUCCCUAACCACUUUUUAUAUAUGUUUUAAAUUUUUGAAAUUCAAGUGUACCUGCCAU` the bound/input enrichment was 0.548 ratio.
`GGAGGUGCUGGGUGACUUUGUAUGUCCGCAUUUUCGGUGUAGAGUGUUGCAGGCCUUUCAGGUUUGAUCUCAAGCUCUGUGGAAAUCAUGCUACGUCAAAUCAUCUCUCAGGCCAAGAAG` has a bound/input enrichment of 0.236 ratio.
For `UUGUGAGGAGUGGGAAAGAUGAGAUUCUUCUCCCUCCAAGUAAAACUGACAUAAUUUCCUUUUAGUUCUGUCUUUUGAAACAAAGAUGCCCUUUUCUCUUAAUUGUGUGACACCACUAUC`, the bound/input enrichment was 0.596 ratio.
With `CGGCUAACUCCCUGAUUGGCCGGGCUGCCCACAUCGCUGUGCUCGAUUCUGAGAUCUUCCUGGAGAAGUUCUUCCUUGUUGCAGGCCUCAGGUUCUUUCAGUAGAACAGCAGCAUAAAUA` the bound/input enrichment was 0.258 ratio.
With `UUAUGCUAUAAUUUUCAUCCUACCUCUAAAACAGCACAGUGAUGACAAACCAGUCCCCAUUAGGGGGUCACCUGCUGCCACUUUCUCAGCGGUGUGUGUCUGAGCCCUGAACUAGUCACA` the bound/input enrichment was 1.05 ratio.
For `AUCUCUCAUUUUAUAUGUCCAAAAAAAGUUUGGAAUUUUUAAACAACUGCUAGUUUUAAUUAGCUCUGCCCUCAUGAAGUAUUAUAAUCACCAAAAACAGAUACCUGUCUGAAUUACUUC`, the bound/input enrichment was 0.544 ratio.

Sample 3 — method: protein-binding microarray; molecule type: double-stranded DNA, one strand shown; medium: in vitro; tested at: not given; direction: higher = stronger binding
Target: Transcriptional repressor CTCF (CTCF, Homo sapiens, UniProt P49711, residues 1-727, full length assumed)
UniProt P49711, sequence (whole entry, looked up): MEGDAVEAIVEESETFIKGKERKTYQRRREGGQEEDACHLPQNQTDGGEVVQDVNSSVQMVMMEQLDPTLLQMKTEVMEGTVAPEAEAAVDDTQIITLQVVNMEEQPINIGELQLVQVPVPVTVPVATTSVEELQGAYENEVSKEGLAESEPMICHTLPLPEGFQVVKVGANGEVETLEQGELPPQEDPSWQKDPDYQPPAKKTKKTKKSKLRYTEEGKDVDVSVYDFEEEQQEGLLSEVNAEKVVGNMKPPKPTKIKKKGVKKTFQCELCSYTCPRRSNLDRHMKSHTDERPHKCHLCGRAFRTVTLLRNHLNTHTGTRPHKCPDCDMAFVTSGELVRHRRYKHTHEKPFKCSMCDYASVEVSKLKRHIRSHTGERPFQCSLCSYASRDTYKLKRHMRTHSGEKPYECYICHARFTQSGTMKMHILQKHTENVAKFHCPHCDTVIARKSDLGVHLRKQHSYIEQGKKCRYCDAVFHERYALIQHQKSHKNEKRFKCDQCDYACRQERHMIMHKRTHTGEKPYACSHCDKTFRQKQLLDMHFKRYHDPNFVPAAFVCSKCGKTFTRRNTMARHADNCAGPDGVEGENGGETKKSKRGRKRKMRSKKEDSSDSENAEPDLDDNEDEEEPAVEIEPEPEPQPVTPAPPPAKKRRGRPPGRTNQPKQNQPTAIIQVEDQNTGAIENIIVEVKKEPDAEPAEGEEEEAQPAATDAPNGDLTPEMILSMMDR
Setting: k-mer, scored over probes, only values ≥0.25
`GCGCCATA` gave an E-score of 0.325.
The E-score of `GATAATCA` is reported as 0.362.
For `ATATGTTG`, the E-score was 0.262.
For `AATTGTAT`, the E-score was 0.262.
For `CAGTAAAA`, the E-score was 0.29.
The E-score of `ATGTGAAA` is reported as 0.344.
`CGGCGCAC` gave an E-score of 0.276.
With `ATAAAACG` the E-score was 0.356.
`ACGTAATA` gave an E-score of 0.312.
The E-score of `GAATAATA` is reported as 0.292.
`GAATTTAC` has an E-score of 0.259.
`ATATAGAA` has an E-score of 0.297.
For `AATGTATA`, the E-score was 0.339.
The E-score of `ATGCAAAA` is reported as 0.295.
`CAATACAA` gave an E-score of 0.309.
`ACTGGTAA` gave an E-score of 0.252.
The E-score of `GTGAACAA` is reported as 0.32.
`ACTATACT` has an E-score of 0.256.
`TATAGTAA` gave an E-score of 0.304.
`GATATTTA` has an E-score of 0.256.
For `ATCAAATA`, the E-score was 0.269.
`ACTTGCGC` has an E-score of 0.313.
With `ATAATCAT` the E-score was 0.31.
For `GTTGATTA`, the E-score was 0.27.
The E-score of `TACATAAA` is reported as 0.297.

Sample 4 — method: RNA Bind-n-Seq; molecule type: RNA; medium: in vitro; tested at: 200 nM; setting: whole 134-nt RNA, ends assumed; together with: 150 mM LiCl; reference: input library; direction: higher = stronger binding; each molecule: 7-deaza-guanosine replaces G
Target: Fragile X messenger ribonucleoprotein 1, C-terminal low-complexity region (Fmr1, Mus musculus, UniProt P35922)
Shared flanks, not repeated: GGGAGUUCUACAGUCCGACGAUC … UGGAAUUCUCGGGUGUCAAGG
The log2 enrichment of `UGGGAGGUGGAUUUUGUUUAUUUUUUUAGCUCAUUUCCAGGAGUGGGAAUUUUUUUUUAAUAUGUGUCAUGAAUAAAGUUGUUUUUGAAA` is reported as -0.118.
`AGUCCUGUGCUACACAUCGUAUGUACCGAAUCGGAAAAAAAGGUUUUUGGUUUUUGGAAAGUAUUAUGUUACGCCGUUCGGAUCUGCACU` has a log2 enrichment of -3.19.
The log2 enrichment of `AAGUCCUGUGCUACACAUCGUAUGUACCGAAUCAAAUUUUUAAAUUUAAACCCAAAAAAGUAUUAUGUUACGCCGUUCGGAUCUGCACUU` is reported as -0.314.
The log2 enrichment of `ACCAUGCAGGUGGGCAUCUUUGGGAAGUGGGGCAAGGGGGGGAUAGGGAGGGGGGUAACACUUGGGGAACAGGUGGUCCCAGGUCGUUUC` is reported as 1.61.
`UGUGGGUCCUCCUGCACCUGGUGCUGGCCUUCCUGUCCCUGCGCUCUUUGACAGCCUCCUGACCUGUAGGACGAGGGAUUCCUUGUUCUU` has a log2 enrichment of 0.953.
For `UCCUCAAGUCCUGUGCUACACAUCGUAUGUACCGAAUCGGAGGGAGGGAGGAAAGUAUUAUGUUACGCCGUUCGGAUCUGCACUUCCAGC`, the log2 enrichment was -1.67.
For `UCAAGUCCUGUGCUACACAUCGUAUGUACCGAAUCGGCCCCGGCCCCGGCCCCGGAAAGUAUUAUGUUACGCCGUUCGGAUCUGCACUUC`, the log2 enrichment was -0.095.
`CACAGACAACACGCACCCACACAGACACAGAGGGAAGGGGUUGGGAUGGGGACAGGGUGCACAGCAGGGCGGGGUAGGACCCAAACCCCU` has a log2 enrichment of -0.406.
`UGCAGUGAUGGUCAUUGUCCUCCAGAGCAGUGAUGGAGGAAAUACCAGCCCAGGAAGCAGCAGGGUCACCAAGGGUCCAGUUUCAGUCUU` has a log2 enrichment of -0.503.
For `AUUAAGGUCACCGUUGCAGGCCUGGCUGGAAAAGACCCAGUACAGUGUAGCCGUGAUGUGGUCAUUUGUCCUGAUGCCAGCCUUGAAGAU`, the log2 enrichment was -2.5.
For `CCUGUGCUACACAUCGUAUGUACCGAAUCGGUUUUUUUGGUUUUUUUGGGGUUUUUUUGGAAAGUAUUAUGUUACGCCGUUCGGAUCUGC`, the log2 enrichment was -0.428.

Sample 5 — method: protein binding microarray; molecule type: double-stranded DNA, one strand shown; medium: in vitro; tested at: not given; reference: not given; direction: higher = stronger binding
Target: Histone acetyltransferase KAT6A, winged helix 2, GST fusion (KAT6A, Homo sapiens, UniProt Q92794, residues 85-181)
Setting: 8-mer, flanks averaged, mean of 2 arrays, mostly near background
Construct (chain): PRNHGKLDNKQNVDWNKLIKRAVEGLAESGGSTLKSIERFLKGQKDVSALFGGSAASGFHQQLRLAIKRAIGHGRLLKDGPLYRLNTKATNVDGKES
For `GGTCAGAA`, the E-score was 0.0306.
The E-score of `ATCTGCCC` is reported as -0.16.
For `CAAGTTGG`, the E-score was 0.0144.
For `GAGCGCGA`, the E-score was 0.0829.
The E-score of `ACAAATAA` is reported as -0.0864.
For `ATCGGAGA`, the E-score was 0.116.
With `CCGGTGAA` the E-score was 0.106.
The E-score of `ATTTTTAA` is reported as 0.17.
With `GGAAAACA` the E-score was 0.117.
`CGCACGAA` gave an E-score of 0.156.
With `CACTCATC` the E-score was -0.061.
For `AGAGCACC`, the E-score was 0.0703.
`ATCGTACG` gave an E-score of -0.196.
`CATCCCGA` has an E-score of 0.0871.
`CTACACCA` gave an E-score of -0.0249.
`GCGGAGAC` has an E-score of 0.213.
With `GAAAGATA` the E-score was 0.0248.
For `CCGATAGG`, the E-score was 0.109.
The E-score of `CACACCAG` is reported as 0.0584.
`AGCGATAG` has an E-score of -0.0521.
